Results collected from several papers.
Numbered parts are unrelated; each lists some results of a single study.

Series 1
Target: RNA binding protein fox-1 homolog 2, RRM domain, GST-SBP tag (RBFOX2, Homo sapiens, UniProt O43251-10, residues 100-194)
Method: RNA Bind-n-Seq
Form: RNA
Sample: in vitro
Tested at: 365 nM
Setting: natural RNA segment, single round, ends assumed
Reference: no-protein control
Reading: higher = stronger binding
All sequences stand within: GGGAGUUCUACAGUCCGACGAUC … UGGAAUUCUCGGGUGCCAA
Construct (chain): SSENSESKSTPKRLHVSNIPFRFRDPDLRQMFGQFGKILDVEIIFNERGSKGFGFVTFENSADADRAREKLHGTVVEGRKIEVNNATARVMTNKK
| Strand | RBNS enrichment (R) |
| --- | --- |
| GGGCUUAUUCUCAGCUAACCCUGGAAGGCUCUAGGGAGGGAGUCUUUUUCCUGAUCCUUGGUAUGACUUAGGAUUCAUUUGUGCAUUCACGAUAUUAACUCUCCAUGAAU | 0.613 |
| UGAGAUCUAAUUCCAAGGACUUCUCCACAGCUAAGUGAGAUGCCUCACACCAUUAGGUGAUGCUUUGGACAGAACAGAGUAUUUUCAUCUUGUGUUUAAAGCAAUUCCUU | 0.316 |
| UCUUUAUUUUACUGUGUGCCCCUGGCUGUCCUGGAAAUCACUAUAUUGCUCAGGCUGGCUUCGGACUCAGAGAUCUAUCUGCUUGCCUCCAACAUUUGAGAGCAGAGAGU | 0.347 |
| UGGCAUGUCUUUCUCCCCUGACCCCAAUCUAUUUUAAUAAAGCAGAGUAGUCAUAGUGUUGAAAGAACUGUACUGUUAUCCCGAGUCCCUUCCAAACAAAAAAGGCAAAG | 0.62 |
| UACCUUGUGUUCCGGGAAUAACAUGAUACUAUUCAGAGGAGCCAGAAGUAAAGUUUAUUUCAUGGAUUAUUUAUGAGAGCUAAUUUAAGGAUGACUUUUUUUCUGAUUCA | 0.534 |
| UGUUUAUAUUCUAAUGUAACCAUAUACCAUAACUAAAUAAAAGUUUGGCUACUUGCACUAAUCUUCCAAAUAGCUGCCUCAAUUUCCAUUAUUAAUAUUUCGGACUCUUC | 0.375 |
| CUUUUUUGUUGUUUUGUUUUUCUUUUUUGGCCUAAGGAAGAAAGCUGUGAUAAAUUUCAAAUUUGCAUAGCUUUUCAAUGUUUUGCUCUGCUCCCGCUCUUGCUUCAGAG | 1.16 |
| CCACAGACAUUGGUCUUGAGAGAGCCUUGGCUGUGUAUCAAUUACAAAGCCCUGCCAGCAAGGGGAUGGCACCACUGGAGCUCUUGCCAAAUCACUCUCAGCCCUGUAUU | 0.446 |
| CAGAAUGAGAGAAGACAUUCAUGUACCACCUACUAGUCCCUCUCUCCCCAACCUCUGCCAGGGCAAUCUCUAACUUCAAUCCCGCCUUCGACAGUGAAAAAGCUCUACUU | 0.402 |
| CUGUUGCCUAGUAUUCACCUGUGUUACUUUGUAUAUGUCACAGUUCUAUGUUUAAUGCUUUACUAAUUUCCAGUAAGACUAUAUUUAAAACUACAUAGUCUUUCCUUAUU | 1.28 |
| CAUACACAGAAGAUAGAAAAAUCUAGCAAAACUUCUCUUUCUGUAAGCCAGAGUCUUGUCUAUCAGAUUCCCACAACCACUCCUGAUUCUAAAUUUAGUGAUAUGGUAAU | 0.561 |
| CAGCUGCCGUUAACCUUUUCACCAGGUGCCACAGUAAUAUUUCUGGUUUUUAGCCCUUUCUCUGCACUACCAACAAGAGAUAAAAUUGUUACUCACACUUAUGUCUUACU | 0.319 |

Series 2
Target: Sal-like protein 4, full length isoform A (SALL4, Homo sapiens, UniProt Q9UJQ4, residues 1-1053)
Sequence of UniProt Q9UJQ4 (whole entry, looked up): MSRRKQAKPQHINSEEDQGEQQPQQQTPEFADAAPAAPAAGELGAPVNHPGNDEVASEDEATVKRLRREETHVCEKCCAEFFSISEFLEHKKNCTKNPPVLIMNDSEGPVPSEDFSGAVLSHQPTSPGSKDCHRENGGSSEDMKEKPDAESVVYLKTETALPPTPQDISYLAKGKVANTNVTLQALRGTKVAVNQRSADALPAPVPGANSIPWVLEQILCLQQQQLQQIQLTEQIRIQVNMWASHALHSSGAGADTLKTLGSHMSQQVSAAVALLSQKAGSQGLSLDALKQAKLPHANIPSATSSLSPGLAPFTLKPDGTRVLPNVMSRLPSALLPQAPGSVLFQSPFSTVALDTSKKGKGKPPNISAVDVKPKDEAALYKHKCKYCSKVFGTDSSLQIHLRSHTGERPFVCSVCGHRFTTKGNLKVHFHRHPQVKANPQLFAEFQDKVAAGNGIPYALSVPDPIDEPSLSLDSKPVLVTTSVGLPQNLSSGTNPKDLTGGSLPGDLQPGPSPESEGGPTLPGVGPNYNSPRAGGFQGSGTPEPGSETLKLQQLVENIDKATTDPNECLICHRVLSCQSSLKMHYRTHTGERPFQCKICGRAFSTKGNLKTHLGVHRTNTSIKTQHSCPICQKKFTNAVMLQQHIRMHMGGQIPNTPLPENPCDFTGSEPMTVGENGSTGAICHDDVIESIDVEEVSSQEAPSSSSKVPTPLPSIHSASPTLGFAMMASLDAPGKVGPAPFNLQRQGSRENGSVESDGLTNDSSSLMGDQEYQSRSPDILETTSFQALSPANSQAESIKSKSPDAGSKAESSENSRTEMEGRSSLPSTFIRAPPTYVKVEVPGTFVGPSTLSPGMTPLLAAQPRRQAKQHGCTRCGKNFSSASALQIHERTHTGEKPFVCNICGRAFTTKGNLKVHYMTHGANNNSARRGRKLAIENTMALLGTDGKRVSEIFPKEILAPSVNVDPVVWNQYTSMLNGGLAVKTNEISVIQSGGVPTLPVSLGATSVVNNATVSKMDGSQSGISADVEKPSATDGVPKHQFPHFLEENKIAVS
Method: universal PBM
Form: double-stranded DNA, one strand shown
Sample: in vitro
Tested at: 600 nM
Setting: 8-mer, flanks averaged, mean of replicates
Reading: higher = stronger binding
| Strand | E-score |
| --- | --- |
| AAACAACA | 0.195 |
| GTGCTTTA | 0.103 |
| TACCATGA | 0.149 |
| ATAATGCG | 0.278 |
| TAGCCCAA | -0.0686 |
| AGTCCCCC | -0.319 |
| GAAAAGAC | 0.0908 |
| CTGAATAC | 0.085 |
| CTTTGGAC | -0.0206 |
| ACCCTTAG | -0.0972 |
| AGAGCCAC | -0.0929 |
| AAAGATGT | 0.205 |
| CAACAAAA | 0.25 |
| AAATGGGT | 0.128 |
| ATATCCGC | 0.0559 |
| ACGCTCGC | -0.139 |
| AGACCTTC | -0.104 |
| ACTTATTG | 0.25 |
| AGAGTTAG | -0.0334 |
| CCGATGAC | -0.121 |
| ACTGTGCG | -0.153 |

Series 3
Target: Fragile X messenger ribonucleoprotein 1, C-terminal low-complexity region (Fmr1, Mus musculus, UniProt P35922)
Method: RNA Bind-n-Seq
Form: RNA
Sample: in vitro
Tested at: 200 nM
Setting: whole 134-nt RNA, ends assumed
With: 150 mM LiCl
Reference: input library
Reading: higher = stronger binding
Library: 7-deaza-guanosine replaces G
All sequences stand within: GGGAGUUCUACAGUCCGACGAUC … UGGAAUUCUCGGGUGUCAAGG
| Strand | log2 enrichment |
| --- | --- |
| GUCCUGUGCUACACAUCGUAUGUACCGAAUCGGGUUUUUUGGUUUUUUGGGUUUUUUGGAAAGUAUUAUGUUACGCCGUUCGGAUCUGCA | -1.32 |
| CAAGUCCUGUGCUACACAUCGUAUGUACCGAAUCGGUUUGGGGUUUGGUUUGGGGAAAGUAUUAUGUUACGCCGUUCGGAUCUGCACUUC | -1.35 |
| CCUGUGCUACACAUCGUAUGUACCGAAUCGGCCCCCCCGGGGCCCCCCCGGCCCCCCCGGAAAGUAUUAUGUUACGCCGUUCGGAUCUGC | 0.962 |
| AAGUCCUGUGCUACACAUCGUAUGUACCGAAUCGGGGUUUUGGUUUUGGGGUUUUGGAAAGUAUUAUGUUACGCCGUUCGGAUCUGCACU | -1.56 |
| GCAGGAAGUAAAAACAAAUGGAAAUGCUUCGGAUAGUGGCAGGGGUGGGGGUUGCUAAGGAAAGGGUGGUAUGGGAGUGGGUAAAGAGUU | 1.51 |
| CUCAAGUCCUGUGCUACACAUCGUAUGUACCGAAUCGGAGGAGGUUUUUUUGGAAAGUAUUAUGUUACGCCGUUCGGAUCUGCACUUCCA | -0.86 |
| ACCAUGCAGGUGGGCAUCUUUGGGCAGUGGGGCAAGGGGGGGAUAGGGAGGGGGGUAACACUUUGGGAACAGGUGGUCCCAGGUCGUUUC | 1.38 |
| GCAGGAAGUAAAAACAAAUGGAAAUGCUUCGGAUAGUGGCAGGGGUGGGGGUUGCUAAGGAAAGGGUGGGAUGGGAAUGGGUAAAGAGUU | 1.32 |
| CUCAAGUCCUGUGCUACACAUCGUAUGUACCGAAUCGGGUGGGGUGGGUGGGGAAAGUAUUAUGUUACGCCGUUCGGAUCUGCACUUCCA | 0.468 |
| CCUGUGCUACACAUCGUAUGUACCGAAUCGGGGAAAAAAGGGAAAAAAGGGAAAAAAGGGGAAAGUAUUAUGUUACGCCGUUCGGAUCUG | 0.691 |
| CUCAAGUCCUGUGCUACACAUCGUAUGUACCGAAUCGGGAAGGAAGGGGAAGGAAAGUAUUAUGUUACGCCGUUCGGAUCUGCACUUCCA | -0.838 |

Series 4
Target: Histone acetyltransferase KAT6A, both winged helices, GST fusion (KAT6A, Homo sapiens, UniProt Q92794, residues 1-181)
Method: protein binding microarray
Form: double-stranded DNA, one strand shown
Sample: in vitro
Tested at: not given
Setting: 8-mer, flanks averaged, mean of 2 arrays, mostly near background
Reference: not given
Reading: higher = stronger binding
Residues (chain): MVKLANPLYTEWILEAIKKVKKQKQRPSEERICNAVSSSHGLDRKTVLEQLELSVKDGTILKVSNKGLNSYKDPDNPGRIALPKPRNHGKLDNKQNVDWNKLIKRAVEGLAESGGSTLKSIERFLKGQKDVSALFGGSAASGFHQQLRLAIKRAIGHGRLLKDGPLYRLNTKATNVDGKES
| Strand | E-score |
| --- | --- |
| TAATCCCA | -0.0893 |
| TAGCGCAA | 0.277 |
| GAGGCTGA | -0.211 |
| GGGGAATA | -0.133 |
| CCGTCGCG | 0.356 |
| GTCTGCCA | -0.0231 |
| TCCCGAAA | -0.0418 |
| GTTGTTGA | -0.0986 |
| AACAGCCA | -0.0495 |
| CACCCTTC | -0.258 |
| ATTATACC | 0.0703 |
| CGTGAGAA | 0.0697 |
| AGTAGACT | -0.177 |
| GGCTTCCA | 0.095 |
| ATCACAAA | -0.167 |
| CGAGGTCC | 0.032 |
| CTAGCTAC | -0.116 |

Series 5
Target: Myc proto-oncogene protein, bHLH-zipper, MAX partner unstated (MYC, Homo sapiens, UniProt P01106, residues 368-449)
Sequence of UniProt P01106 (368-449, looked up): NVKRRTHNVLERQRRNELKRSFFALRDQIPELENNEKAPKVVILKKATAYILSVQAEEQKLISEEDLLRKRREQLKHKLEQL
Method: protein-binding microarray
Form: double-stranded DNA, one strand shown
Sample: in vitro
Tested at: not given
Setting: k-mer, scored over probes, only values ≥0.25
Reading: higher = stronger binding
| Strand | E-score |
| --- | --- |
| GTGGCGCA | 0.362 |
| ACCCCACG | 0.302 |
| CACGTGCC | 0.493 |
| GGTCCACA | 0.292 |
| AACGTGCG | 0.403 |
| ACGCGGCA | 0.359 |
| ACCACGTG | 0.498 |
| TCGTGGAA | 0.307 |
| ATGTGTGC | 0.335 |
| CCCGACCC | 0.268 |
| AATCACGC | 0.308 |
| TGCCCACA | 0.25 |
| GCACGCAC | 0.389 |
| CGCATGCC | 0.432 |
| CCTCCCCA | 0.403 |
| ATGCGCTA | 0.265 |
| ACCGCCAC | 0.277 |
| CACGCGAA | 0.366 |
| CGCACACA | 0.264 |
| ACGCGCGA | 0.251 |
| CGAGGGGC | 0.278 |
| CCCGTGGC | 0.295 |
| CGTGCTCA | 0.424 |

Series 6
Target: Prothrombin, mature alpha-thrombin (F2, Homo sapiens, UniProt P00734)
Method: aptamer microarray, sandwich
Form: DNA with 2'F-ANA
Sample: in vitro
Tested at: 200 nM
Setting: whole 15-mer aptamer, many near background
With: Cy3 exosite-II aptamer, 400 nM
Reading: higher = stronger binding
Strand: GGTTGGTGTGGTTGG
| Modification | mean fluorescence intensity [a.u.] |
| --- | --- |
| 2'F-ANA at 1 4 5 6 8 11 14 | 45.5 |
| 2'F-ANA at 3 4 5 6 8 15 | 97.3 |
| 2'F-ANA at 3 4 5 8 9 10 11 12 15 | 58.2 |
| 2'F-ANA at 1 2 7 8 9 10 11 12 13 14 | 50.1 |
| 2'F-ANA at 1 2 3 4 8 10 11 12 13 15 | 68.8 |
| 2'F-ANA at 2 4 5 6 | 69 |
| 2'F-ANA at 1 3 6 7 8 9 10 12 15 | 115 |
| 2'F-ANA at 1 2 5 6 7 9 12 14 15 | 52.1 |
| 2'F-ANA at 2 7 11 12 13 14 | 179 |
| 2'F-ANA at 2 3 5 9 10 14 | 48.5 |
| 2'F-ANA at 1 2 3 6 8 12 14 15 | 94.1 |
| 2'F-ANA at 1 5 7 8 9 10 11 13 14 | 46.1 |
| 2'F-ANA at 1 2 5 12 14 | 43.9 |
| 2'F-ANA at 3 5 6 7 9 11 12 13 15 | 121 |
| 2'F-ANA at 5 6 7 9 10 11 | 48.1 |
| 2'F-ANA at 1 3 4 6 7 8 9 10 13 | 59.5 |
| 2'F-ANA at 2 6 7 10 11 12 13 14 15 | 113 |
| 2'F-ANA at 2 4 6 11 12 13 | 347 |
| 2'F-ANA at 1 2 4 6 7 8 9 11 | 101 |
| 2'F-ANA at 1 3 5 6 8 9 11 12 13 | 90.9 |
| 2'F-ANA at 2 5 6 8 9 12 15 | 155 |
| 2'F-ANA at 1 3 5 6 10 12 13 | 45.9 |
| 2'F-ANA at 6 8 9 10 13 | 139 |
| 2'F-ANA at 3 4 6 8 11 12 13 14 15 | 243 |
| 2'F-ANA at 1 2 4 9 11 12 13 14 15 | 73.2 |

Some of these lines once more (series 6):
| Modification | mean fluorescence intensity [a.u.] |
| --- | --- |
| 2'F-ANA at 2 3 5 9 10 14 | 48.5 |
| 2'F-ANA at 1 2 3 6 8 12 14 15 | 94.1 |
| 2'F-ANA at 1 5 7 8 9 10 11 13 14 | 46.1 |
| 2'F-ANA at 1 2 5 12 14 | 43.9 |
| 2'F-ANA at 3 5 6 7 9 11 12 13 15 | 121 |
| 2'F-ANA at 5 6 7 9 10 11 | 48.1 |
| 2'F-ANA at 1 3 4 6 7 8 9 10 13 | 59.5 |
| 2'F-ANA at 2 6 7 10 11 12 13 14 15 | 113 |
| 2'F-ANA at 2 4 6 11 12 13 | 347 |
| 2'F-ANA at 1 2 4 6 7 8 9 11 | 101 |
| 2'F-ANA at 1 3 5 6 8 9 11 12 13 | 90.9 |
| 2'F-ANA at 2 5 6 8 9 12 15 | 155 |
| 2'F-ANA at 1 3 5 6 10 12 13 | 45.9 |
| 2'F-ANA at 6 8 9 10 13 | 139 |
| 2'F-ANA at 3 4 6 8 11 12 13 14 15 | 243 |
